Measured values gathered from unrelated publications.
Compare with care: the assays were run in different laboratories. Values joined by “and” are separate records of one study, mostly repeats; a detail may differ.
UniProt Q64663, sequence (whole entry, unmodified, looked up): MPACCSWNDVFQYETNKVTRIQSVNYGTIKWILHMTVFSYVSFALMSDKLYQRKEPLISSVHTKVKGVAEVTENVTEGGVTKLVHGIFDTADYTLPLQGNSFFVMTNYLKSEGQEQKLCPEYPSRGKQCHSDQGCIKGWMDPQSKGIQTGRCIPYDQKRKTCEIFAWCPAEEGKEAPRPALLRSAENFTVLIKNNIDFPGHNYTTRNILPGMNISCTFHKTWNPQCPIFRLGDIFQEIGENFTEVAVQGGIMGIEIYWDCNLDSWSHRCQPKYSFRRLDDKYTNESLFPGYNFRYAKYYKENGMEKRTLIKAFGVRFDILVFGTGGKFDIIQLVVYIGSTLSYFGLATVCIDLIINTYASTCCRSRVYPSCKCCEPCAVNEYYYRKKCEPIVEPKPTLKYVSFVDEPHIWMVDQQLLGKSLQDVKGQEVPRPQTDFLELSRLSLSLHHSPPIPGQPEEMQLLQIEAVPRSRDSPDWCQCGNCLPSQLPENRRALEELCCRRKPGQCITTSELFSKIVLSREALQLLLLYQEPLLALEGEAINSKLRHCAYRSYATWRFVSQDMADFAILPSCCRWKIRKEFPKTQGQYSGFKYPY
UniProt P05164, sequence (whole entry, looked up): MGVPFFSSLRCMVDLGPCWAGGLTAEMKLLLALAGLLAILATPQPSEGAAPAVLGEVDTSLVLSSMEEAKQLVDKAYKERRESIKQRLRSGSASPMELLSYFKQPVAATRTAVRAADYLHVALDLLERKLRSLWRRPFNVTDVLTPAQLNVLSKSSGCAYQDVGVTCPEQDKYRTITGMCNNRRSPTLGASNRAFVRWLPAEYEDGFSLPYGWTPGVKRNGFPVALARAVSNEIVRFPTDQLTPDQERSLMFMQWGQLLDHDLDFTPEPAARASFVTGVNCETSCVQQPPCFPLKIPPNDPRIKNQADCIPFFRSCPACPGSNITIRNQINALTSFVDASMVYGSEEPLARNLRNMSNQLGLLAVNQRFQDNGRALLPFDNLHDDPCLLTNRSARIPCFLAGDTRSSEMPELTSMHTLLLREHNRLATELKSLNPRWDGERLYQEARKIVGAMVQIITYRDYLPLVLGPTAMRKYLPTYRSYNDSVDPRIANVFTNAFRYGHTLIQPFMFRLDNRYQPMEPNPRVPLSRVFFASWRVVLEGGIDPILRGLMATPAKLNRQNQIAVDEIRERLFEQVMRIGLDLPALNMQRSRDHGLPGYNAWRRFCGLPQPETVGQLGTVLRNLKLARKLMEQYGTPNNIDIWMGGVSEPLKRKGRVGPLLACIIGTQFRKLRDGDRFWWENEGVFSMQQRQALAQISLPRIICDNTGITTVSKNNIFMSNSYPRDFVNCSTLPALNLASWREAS
UniProt P51575, sequence (whole entry, unmodified, looked up): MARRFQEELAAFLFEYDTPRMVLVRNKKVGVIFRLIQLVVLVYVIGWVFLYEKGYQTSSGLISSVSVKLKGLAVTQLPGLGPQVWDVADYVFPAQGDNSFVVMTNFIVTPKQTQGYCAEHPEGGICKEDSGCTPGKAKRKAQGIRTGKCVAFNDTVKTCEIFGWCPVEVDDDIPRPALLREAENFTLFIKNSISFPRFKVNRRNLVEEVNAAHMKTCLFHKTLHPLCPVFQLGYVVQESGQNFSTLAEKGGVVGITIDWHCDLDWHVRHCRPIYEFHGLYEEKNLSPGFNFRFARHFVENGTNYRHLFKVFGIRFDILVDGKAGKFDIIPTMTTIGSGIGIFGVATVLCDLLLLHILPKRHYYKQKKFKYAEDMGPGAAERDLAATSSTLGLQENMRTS
UniProt Q6PL18, sequence (whole entry, unmodified, looked up): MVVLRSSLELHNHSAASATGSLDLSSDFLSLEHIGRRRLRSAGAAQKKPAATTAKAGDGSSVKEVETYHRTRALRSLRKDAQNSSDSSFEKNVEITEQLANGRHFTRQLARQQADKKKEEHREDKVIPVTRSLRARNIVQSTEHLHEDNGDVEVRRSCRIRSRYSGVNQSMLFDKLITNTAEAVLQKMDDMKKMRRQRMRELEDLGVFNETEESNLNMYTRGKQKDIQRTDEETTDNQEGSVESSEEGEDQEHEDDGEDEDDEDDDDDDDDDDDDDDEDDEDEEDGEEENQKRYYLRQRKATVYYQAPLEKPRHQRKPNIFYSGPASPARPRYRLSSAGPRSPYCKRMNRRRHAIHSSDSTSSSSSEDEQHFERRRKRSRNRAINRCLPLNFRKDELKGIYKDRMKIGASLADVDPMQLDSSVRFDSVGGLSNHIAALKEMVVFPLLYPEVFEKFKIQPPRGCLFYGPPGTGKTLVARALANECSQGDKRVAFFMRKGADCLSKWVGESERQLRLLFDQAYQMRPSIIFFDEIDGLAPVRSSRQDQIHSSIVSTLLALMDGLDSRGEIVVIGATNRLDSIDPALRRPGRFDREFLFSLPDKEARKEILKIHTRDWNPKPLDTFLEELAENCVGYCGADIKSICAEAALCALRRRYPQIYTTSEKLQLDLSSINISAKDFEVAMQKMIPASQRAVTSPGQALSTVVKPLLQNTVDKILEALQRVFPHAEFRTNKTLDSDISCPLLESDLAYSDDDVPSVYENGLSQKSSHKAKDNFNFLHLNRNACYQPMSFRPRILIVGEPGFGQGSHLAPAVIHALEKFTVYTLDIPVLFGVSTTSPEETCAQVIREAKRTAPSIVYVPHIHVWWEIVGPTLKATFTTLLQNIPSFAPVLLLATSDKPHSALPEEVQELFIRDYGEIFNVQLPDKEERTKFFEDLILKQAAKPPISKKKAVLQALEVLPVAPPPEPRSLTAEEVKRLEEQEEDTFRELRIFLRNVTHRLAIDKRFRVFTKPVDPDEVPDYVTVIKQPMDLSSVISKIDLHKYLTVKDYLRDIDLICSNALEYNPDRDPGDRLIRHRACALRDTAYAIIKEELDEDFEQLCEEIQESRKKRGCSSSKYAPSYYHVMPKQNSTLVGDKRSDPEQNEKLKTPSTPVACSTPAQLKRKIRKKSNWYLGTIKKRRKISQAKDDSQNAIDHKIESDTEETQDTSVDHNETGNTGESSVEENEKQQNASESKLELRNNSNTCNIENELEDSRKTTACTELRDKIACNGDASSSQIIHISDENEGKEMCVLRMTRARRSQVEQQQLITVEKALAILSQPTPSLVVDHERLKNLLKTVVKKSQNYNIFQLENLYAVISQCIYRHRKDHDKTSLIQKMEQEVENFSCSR
UniProt P31749, sequence (whole entry, looked up): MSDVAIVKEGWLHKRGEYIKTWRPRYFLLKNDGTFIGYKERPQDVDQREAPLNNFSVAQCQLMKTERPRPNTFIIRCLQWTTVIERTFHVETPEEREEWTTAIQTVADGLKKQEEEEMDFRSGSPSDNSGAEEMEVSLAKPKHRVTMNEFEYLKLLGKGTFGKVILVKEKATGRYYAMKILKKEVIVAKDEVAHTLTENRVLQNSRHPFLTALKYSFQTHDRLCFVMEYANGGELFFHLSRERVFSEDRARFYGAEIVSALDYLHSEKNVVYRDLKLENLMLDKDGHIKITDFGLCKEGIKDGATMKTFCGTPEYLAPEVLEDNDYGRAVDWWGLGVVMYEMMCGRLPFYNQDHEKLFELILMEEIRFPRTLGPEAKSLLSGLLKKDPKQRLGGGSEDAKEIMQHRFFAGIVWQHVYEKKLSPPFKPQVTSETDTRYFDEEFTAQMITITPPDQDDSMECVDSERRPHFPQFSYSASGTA

| Structure (SMILES) | target | assay | test system | setting | how to read | measurement | result |
| --- | --- | --- | --- | --- | --- | --- | --- |
| O=C(O)c1ccc(Nc2ncc3c(n2)-c2ccc(Cl)cc2C(c2c(F)cccc2F)=NC3)cc1 | BRK(h) | kinase activity | – | 1 µM | – | remaining activity | 104% |
| O=C(COP(=O)(O)O)[C@@H](O)[C@H](O)[C@H](O)COP(=O)(O)O | Actin, alpha skeletal muscle (ACTA1, Homo sapiens, UniProt P68133) | thermal proteome profiling, refers to: ACTA1 | HepG2 cell lysate | concentration not given, 57 over 37 °C, mean | relative to: compound over control | thermal stability ratio | 0.639 |
| Nc1ncnc2c1ncn2[C@@H]1O[C@H](COP(=O)(O)OP(=O)(O)OP(=O)(O)O)[C@@H](O)[C@H]1O | P2X purinoceptor 7 (P2rx7, Rattus norvegicus, UniProt Q64663) | ion current, two-electrode voltage clamp | Xenopus laevis oocytes | 1000 µM | – | normalized current | 1 and 0.98 and 0.96 |
| CC[C@H](C)[C@H](NC(=O)[C@H](Cc1ccccc1)NC(=O)[C@H](CCC(=O)O)NC(=O)[C@H](CCCNC(=N)N)NC(=O)[C@H](C)NC(=O)[C@H](C)NC(=O)[C@H](CCC(N)=O)NC(=O)[C@H](CCC(=O)O)NC(=O)[C@H](CCC(=O)O)NC(=O)[C@H](CC(C)C)NC(=O)[C@H](Cc1ccc(O)cc1)NC(=O)[C@H](CO)NC(=O)[C@H](CO)NC(=O)[C@@H](NC(=O)[C@H](CC(=O)O)NC(=O)[C@H](CO)NC(=O)[C@@H](NC(=O)[C@H](Cc1ccccc1)NC(=O)[C@@H](NC(=O)CNC(=O)[C@H](CCC(=O)O)NC(=O)[C@H](C)NC(=O)CCc1cnc[nH]1)[C@@H](C)O)[C@@H](C)O)C(C)C)C(=O)N[C@@H](C)C(=O)N[C@@H](Cc1c[nH]c2ccccc12)C(=O)N[C@@H](CC(C)C)C(=O)N[C@H](C(=O)N[C@@H](CCCNC(=N)N)C(=O)NCC(=O)N[C@@H](CCCNC(=N)N)C(=O)N[C@@H](CCCCNC(=O)COCCOCCNC(=O)COCCOCCNC(=O)CC[C@H](NC(=O)CCCCCCCCCCCCCCCCC(=O)O)C(=O)O)C(=O)NCC(=O)NCC(=O)N[C@@H](CO)C(=O)N[C@@H](CCCCNC(=O)[C@H](CCCCNc1c(NCCCCCN(O)C(=O)CCC(=O)NCCCCCN(O)C(=O)CCC(=O)NCCCCCN(O)C(C)=O)c(=O)c1=O)Nc1c(NCCCCCN(O)C(=O)CCC(=O)NCCCCCN(O)C(=O)CCC(=O)NCCCCCN(O)C(C)=O)c(=O)c1=O)C(=O)O)C(C)C | Glucagon-like peptide 1 receptor (GLP1R, Homo sapiens, UniProt P43220) | agonist, CRE luciferase reporter | BHK cells | Zr-loaded DFO conjugate, added: 0% HSA | relative to: parent peptide | fold potency loss | 1.5 |
| COc1cc(Cl)c(C(=O)N[C@@H](CN[C@H]2CC[C@@H](N)CC2)Cc2ccc(C#N)cc2)cc1-c1ccc(CN[C@H](C)c2ccc(C)cc2)o1 | ATPase family AAA domain-containing protein 2, bromodomain (ATAD2, Homo sapiens, UniProt Q6PL18) | thermal shift | – | 25 µM, untagged protein | – | ΔTm | 11.4 °C |
| NC/C(=C\F)COc1cccc(Cn2c(=S)[nH]c(=O)c3[nH]cnc32)c1 | Myeloperoxidase (MPO, Homo sapiens, UniProt P05164) | inhibitor, cholesteryl ester hydroperoxide | – | 0.5 µM | relative to: control | LDL lipid peroxidation | 1.69% and 16.4% and 8.14% and 2.22% |
| Nc1ncnc2c1ncn2[C@@H]1O[C@H](COP(=O)(O)CP(=O)(O)OP(=O)(O)O)[C@@H](O)[C@H]1O | P2X purinoceptor 1 (P2RX1, Homo sapiens, UniProt P51575, K136A) | calcium influx | – | 10 µM | relative to: ionomycin response | calcium influx | 94.8% and 100% |
| CCCCCCCCCCCC1=C(O)C(=O)C=C(O)C1=O | de novo protein S23 | CD spectroscopy titration | – | concentration not given | – | binding | not detected |
| CC[C@@H]1[C@H](F)C(=O)N[C@@H]1COc1nccc2cc(C(N)=O)c(OC)cc12 | RAC-alpha serine/threonine-protein kinase (AKT1, Homo sapiens, UniProt P31749) | ATP probe binding, KiNativ profiling, refers to: ATP loop probe site | THP-1 cell lysate | 0.2 mM | – | inhibition | 11.8% |
| Cc1ncsc1-c1ccc(CNC(=O)[C@@H]2C[C@H](O)CN2C(=O)[C@@H](NC(=O)C2(F)CC2)C(C)(C)C)c(OCCc2ccc(CN3CCN(c4cc(-c5ccccc5O)nnc4N)CC3)cc2)c1 | SWI/SNF-related matrix-associated actin-dependent regulator of chromatin subfamily A member 4, bromodomain (SMARCA4, Homo sapiens, UniProt P51532) | ternary complex binding, TR-FRET competition | – | added: VCB complex | – | cooperativity factor alpha | 0.8 |

Excerpt of the above:
| Structure (SMILES) | target | assay | test system | setting | how to read | measurement | result |
| --- | --- | --- | --- | --- | --- | --- | --- |
| NC/C(=C\F)COc1cccc(Cn2c(=S)[nH]c(=O)c3[nH]cnc32)c1 | Myeloperoxidase (MPO, Homo sapiens, UniProt P05164) | inhibitor, cholesteryl ester hydroperoxide | – | 0.5 µM | relative to: control | LDL lipid peroxidation | 1.69% and 16.4% and 8.14% and 2.22% |
